Assay results gathered from unrelated publications.
Every numbered part comes from another study and shows a few of its results, in no order.

Sample 1 — method: protein-binding microarray; molecule type: double-stranded DNA, one strand shown; medium: in vitro; concentration: not given; direction: higher = stronger binding; quantity: E-score
Target: Transcription factor Sp1 (SP1, Homo sapiens, UniProt P08047, residues 1-785, full length assumed)
Chain of UniProt P08047 (whole entry, looked up): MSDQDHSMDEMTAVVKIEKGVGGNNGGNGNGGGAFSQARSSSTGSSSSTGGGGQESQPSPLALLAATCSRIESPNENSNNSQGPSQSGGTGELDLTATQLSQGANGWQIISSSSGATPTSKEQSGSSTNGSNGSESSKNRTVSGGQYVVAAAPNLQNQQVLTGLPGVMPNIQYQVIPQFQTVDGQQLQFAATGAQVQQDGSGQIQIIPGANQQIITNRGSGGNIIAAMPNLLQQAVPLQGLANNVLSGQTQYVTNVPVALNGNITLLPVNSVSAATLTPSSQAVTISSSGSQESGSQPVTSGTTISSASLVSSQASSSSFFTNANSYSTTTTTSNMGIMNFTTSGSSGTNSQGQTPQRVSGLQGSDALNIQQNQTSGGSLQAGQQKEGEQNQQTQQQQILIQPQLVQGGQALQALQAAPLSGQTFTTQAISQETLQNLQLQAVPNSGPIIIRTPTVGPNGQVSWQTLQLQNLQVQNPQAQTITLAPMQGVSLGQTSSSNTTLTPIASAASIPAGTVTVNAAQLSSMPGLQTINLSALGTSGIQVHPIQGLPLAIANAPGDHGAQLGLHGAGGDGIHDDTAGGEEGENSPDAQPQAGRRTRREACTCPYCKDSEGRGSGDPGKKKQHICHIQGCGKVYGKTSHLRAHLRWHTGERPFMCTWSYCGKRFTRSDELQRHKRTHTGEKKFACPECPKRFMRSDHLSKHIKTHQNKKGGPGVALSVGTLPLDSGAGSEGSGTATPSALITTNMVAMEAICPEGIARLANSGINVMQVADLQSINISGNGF
Setting: k-mer, scored over probes, only values ≥0.25
ACAGGGTA: 0.265
CGTTGTAG: 0.254
GGGGAATA: 0.285
CCGCCCGC: 0.302
TCCCCACA: 0.311
CGCCACCC: 0.295
ATACCATC: 0.259
ACCCCAAT: 0.287
GTAACACA: 0.305
AGGCGTGG: 0.327
TACAACAA: 0.271
GGGATACA: 0.252
ACCTACAT: 0.251
AGGGTTAT: 0.291
CAACAGGG: 0.252
ACATATAC: 0.27
GCCACACC: 0.303

Sample 2 — target: UBE2Z UBC core domain (UniProt Q9H832); method: yeast two-hybrid; medium: yeast; setting: mostly zero background; reference: not given; direction: higher = stronger interaction; quantity: lacZ reporter activity
B1: TRIM52 RING domain (UniProt Q96A61); chain PMQTLQEEAVCAICLDYFKDPVSISCGHNFCRGCVTQLWSKEDEEDQNEEEDEWEEEEDEEAV
B2: TRIM38 RING domain (UniProt O00635); chain STKKMMEEATCSICLSLMTNPVSINCGHSYCHLCITDFFKNPSQKQLRQETFCCPQCRAPFHMDSLRP
B3: RNF4 RING domain (UniProt P78317); chain TGLRPSGTVSCPICMDGYSEIVQNGRLIVSTECGHVFCSQCLRDSLKNANTCPTCRKKINHKRYHP
B4: RNF112 RING domain (UniProt Q9ULX5); chain QPMAPRELPTCSICLERLRDPISLDCGHDFCIRCFSTHRLPGCEPPCCPECRKICKQKRGLR
B5: RNF150 RING domain (UniProt Q9ULK6); chain DKETESDFDNCAVCIEGYKPNDVVRILPCRHLFHKSCVDPWLLDHRTCPMCKMNILKALGIP
B6: TRIM55 RING domain (UniProt Q9BYV6); chain TMDNLEKQLICPICLEMFTKPVVILPCQHNLCRKCASDIFQASNPYLPTRGGTTMASGGRFRCPSCRHEVVLDRHG
B7: TRIM35 RING domain (UniProt Q9UPQ4); chain PSRSFKEELLCAVCYDPFRDAVTLRCGHNFCRGCVSRCWEVQVSPTCPVCKDRASPADLRT
Residues (chain): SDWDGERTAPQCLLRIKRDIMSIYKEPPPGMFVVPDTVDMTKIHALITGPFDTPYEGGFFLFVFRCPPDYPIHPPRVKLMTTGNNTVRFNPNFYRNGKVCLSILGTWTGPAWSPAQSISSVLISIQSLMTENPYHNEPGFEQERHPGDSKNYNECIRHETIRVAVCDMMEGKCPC
B1 (TRIM52 RING domain): 0
B2 (TRIM38 RING domain): 0
B3 (RNF4 RING domain): 3480
B4 (RNF112 RING domain): 0
KRQCSDVDDICSICQAEFQKPILLICQHIFCEECMTLWFNREKTCPLCRTVISDHINKW (RNFT1 RING domain (UniProt Q5M7Z0)): 2440
B5 (RNF150 RING domain): 5190
B6 (TRIM55 RING domain): 0
B7 (TRIM35 RING domain): 0

Sample 3 — method: competition protein-binding microarray; molecule type: double-stranded DNA, one strand shown; medium: in vitro; concentration: 2 µM; with: Cbf1 competitor, 0.05 µM; direction: higher = stronger binding; quantity: fluorescence intensity
Target: Phosphate system positive regulatory protein PHO4, full length, GST-tagged (PHO4, Saccharomyces cerevisiae, UniProt P07270, residues 1-312)
Setting: whole 60-bp probe, lowest competitor level
Target sequence (chain): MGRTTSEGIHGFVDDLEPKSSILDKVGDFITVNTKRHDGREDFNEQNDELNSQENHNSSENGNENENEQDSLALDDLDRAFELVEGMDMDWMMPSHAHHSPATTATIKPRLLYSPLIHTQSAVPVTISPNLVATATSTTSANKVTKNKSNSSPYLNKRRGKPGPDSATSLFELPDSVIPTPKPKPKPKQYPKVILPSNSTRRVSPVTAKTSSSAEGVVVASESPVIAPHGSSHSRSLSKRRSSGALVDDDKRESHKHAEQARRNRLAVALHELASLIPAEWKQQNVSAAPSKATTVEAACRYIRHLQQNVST
AGTTTTCCTTAGCACAGCATGACAATAACCGGGAATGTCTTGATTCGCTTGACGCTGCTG: 5620 a.u.
TGAATGTAGGTCCATCACGGGCTGCATTTAGTACAAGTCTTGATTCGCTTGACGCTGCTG: 7200 a.u.
AAATTACTAAGTTGTGCGGTGGGTGACGCCGTATGAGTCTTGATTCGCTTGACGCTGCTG: 5050 a.u.
GACGCAGCGGGCTTGCTTGTGGACTGCTTGGTGGGGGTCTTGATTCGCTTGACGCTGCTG: 3740 a.u.
CTTCTGTAAATTTGGACCGTGGGTGGACGCGCCCCGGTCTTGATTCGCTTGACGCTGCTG: 7450 a.u.
TCTAGGGATGAGCTGAACGTGCAAATGATACCAACCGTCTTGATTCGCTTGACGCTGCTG: 10700 a.u.
GTCTTGTCTCATTGTTTTGTGGGTGTCCCCACTTCAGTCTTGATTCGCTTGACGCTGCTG: 5150 a.u.
ATTTCTCAATACCATCACGTGCGATCTAAGAAGATGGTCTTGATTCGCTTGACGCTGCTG: 19600 a.u.
CCTAAGATGGGTCGGCACGTGTAATGAACTGAACGCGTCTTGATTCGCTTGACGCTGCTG: 17700 a.u.
CTTTCCCGATCTTGGACCGTGGGTGTAGCACATTTGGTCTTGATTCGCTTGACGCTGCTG: 9600 a.u.
TGCGCAACAACTTGGCGAGTGGGTGTATGTCTAGAAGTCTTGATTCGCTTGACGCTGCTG: 5130 a.u.
TTAGGTGTCTGGCTCAGCGTGAGAAGATCTTAGAAGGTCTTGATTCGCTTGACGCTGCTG: 3750 a.u.
GTCTTGTCTCATTGCCGTGTGGGTGTCCCCACTTCAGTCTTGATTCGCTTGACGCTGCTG: 5750 a.u.
CTTCTGTAAATTTGTAAGGTGGGTGGACGCGCCCCGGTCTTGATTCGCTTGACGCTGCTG: 4850 a.u.
CCTCTTTACATTTGGCATGCGTTGACACTATAGATTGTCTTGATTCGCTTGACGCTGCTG: 8930 a.u.
GAAACTCATAGAGATGACGTGCCAGTTGGTTACGCCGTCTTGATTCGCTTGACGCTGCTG: 5520 a.u.
TGATTGCCTCCGACGCTCGTGACGGGTTCCTCCGAAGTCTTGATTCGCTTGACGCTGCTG: 6290 a.u.
CTTCTGTAAATTTGTGCTGTGGGTGGACGCGCCCCGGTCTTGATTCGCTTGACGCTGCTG: 5000 a.u.
AAGTCGTTAGGGCCAATCGTGGGACGTATGCTATTGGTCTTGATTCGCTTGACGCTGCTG: 6340 a.u.

Sample 4 — method: RNA Bind-n-Seq; molecule type: RNA; medium: in vitro; concentration: not given; reference: input RNA pool; direction: higher = stronger binding; quantity: bound/input enrichment
Target: RING finger protein unkempt homolog, zinc fingers 1-6, GST-SBP tag (UNK, Homo sapiens, UniProt Q9C0B0, residues 30-357)
Chain of UniProt Q9C0B0 (30-357, looked up): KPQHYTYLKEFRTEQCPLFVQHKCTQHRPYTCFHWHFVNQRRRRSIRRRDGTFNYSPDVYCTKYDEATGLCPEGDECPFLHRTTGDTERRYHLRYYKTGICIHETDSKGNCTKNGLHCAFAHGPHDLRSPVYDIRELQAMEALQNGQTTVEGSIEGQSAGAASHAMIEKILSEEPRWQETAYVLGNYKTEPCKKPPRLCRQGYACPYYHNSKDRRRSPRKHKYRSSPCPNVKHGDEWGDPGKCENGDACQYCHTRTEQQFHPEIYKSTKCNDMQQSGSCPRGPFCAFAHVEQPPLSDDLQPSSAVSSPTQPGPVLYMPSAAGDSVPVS
Setting: RNA with constant flanks, human and mouse sites, ends assumed
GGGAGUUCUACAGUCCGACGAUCAAUUUUUUUACUAUAAAAAUACAGGAAGGAAGUAUACAUUAUAACAGCAGACUGUGUGUGUUCCUGAUUCCUGGAGGUAAUAGUGGGGGGAAACCAACCAUACUUUUUAAAGGCACUUUUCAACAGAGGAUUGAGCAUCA: 0.636 ratio
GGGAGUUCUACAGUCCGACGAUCAUAUCUGAUCAGAUAGUCCCUUCAUUCUGUAGACGUGUAUUGGUUGGUCCAAGACACAGUGAGUAGGAGCUCUGUGGACCAAGACAAAGCUGGACUAGAGAGUACAGUUCAAACUUGGCACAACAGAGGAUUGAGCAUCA: 0.415 ratio
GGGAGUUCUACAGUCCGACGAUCUUUACUUUUUUUGUGUGUUAAUGGUGUGUGCUCCCUCUCCCUCUCUUCCCUUUCCUGACCUUUAGUCUUUCACUUCCAAUUUUGUGGAAUGAUAUUUUAGGAAUAACGGACUUUUAAAGACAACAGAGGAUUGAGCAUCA: 0.967 ratio
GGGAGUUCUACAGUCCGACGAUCCUGACUGCUAAAAUCCAGGAGCUCAAGGAAGAGUACGCUAGGAAGAGGGAAACCAUUUCCACUGCUAACAAAGCUAAUGAAGAGAGAUUGAAAGGACUGCAGAAAUCAGCGGAUCUGUAUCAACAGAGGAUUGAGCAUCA: 0.25 ratio
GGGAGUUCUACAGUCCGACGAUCACAUAGCUGACUCUCCACUCAAUUUUGUUGUUGUUGUUGUCGUCAUUUUUCACAAUACUUUAGCAAAUUUUUUAUCUUAUGGGGGACUCGGUUUCUUUUCACAUGUGAUUUCUGGGAGGCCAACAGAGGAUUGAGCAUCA: 12.2 ratio
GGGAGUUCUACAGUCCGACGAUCAUGAUCACAGUAGAUAUUAUUCCUUCAGGUUGGAAUUCAGCUGAUGGUAAAAGUGAUAAAACUAAAAGUGCGCCUUCAAGAGAUCCAGAAAGAUUGCAGAAAAUAAAAGAGAGCCUCCUUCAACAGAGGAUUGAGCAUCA: 0.426 ratio
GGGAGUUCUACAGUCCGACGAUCUAUAGUCCUGGAUCUUCUGGGGUUCCCUAUGCAAAUGCCAAAGGAAUUGGUUAUCCAGCUGGUUUUCCCAUGGGCUAUGCAGCAGCAGCUCCUGCCUAUUCUCCUAACAUGUAUCCUGGACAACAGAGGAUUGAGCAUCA: 0.165 ratio
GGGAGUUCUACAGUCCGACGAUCGAACACUUGCUACAGGGUCUGCUUCCUGAUGUGCAAGUACCAACAUCUGUAAAAGAUAUGCGCUAUUGCCAGGUUUCAUUCCAAGAUGAUCAUGUGUCUUUGGAAAGUGCGUUUACAGUACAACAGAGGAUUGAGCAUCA: 0.167 ratio

Repeated from above (sample 2):
B1 (TRIM52 RING domain): 0
B3 (RNF4 RING domain): 3480
B2 (TRIM38 RING domain): 0
B4 (RNF112 RING domain): 0
B6 (TRIM55 RING domain): 0
KRQCSDVDDICSICQAEFQKPILLICQHIFCEECMTLWFNREKTCPLCRTVISDHINKW (RNFT1 RING domain (UniProt Q5M7Z0)): 2440
B5 (RNF150 RING domain): 5190
